Assay results gathered from unrelated publications.
Lines come from different studies, so protocols differ.
Matrix: plasma

COC(=O)c1cc(Cl)ccc1N(C)C(=O)c1ccn2ncc(-c3ccc(C(N)=O)cc3)c2c1  AUC (female C57BL/6 mouse; oral, 10 mg/kg): 0.142 µM·h
CC(C)n1ncc2c(C(=O)NCC3(C)CNC3)cc(C3CC3)nc21  AUC(0-inf) (female BALB/c mouse; intraperitoneal, 50 mg/kg): 11100 ng·h/mL
Cn1ncnc1[C@H]1c2n[nH]c(=O)c3cc(F)cc(c23)N[C@@H]1c1ccc(F)cc1  AUC (female FVB mouse; oral, 0.5 mg/kg): 620 ng·h/mL
O=C(O)CCN1C(=O)/C(=C2/C(=O)Nc3ccc(Cl)cc32)SC1=S  AUC(0-t) (mouse; intraperitoneal, 25 mg/kg): 17900 ng·h/mL
CN(C(=O)c1ccn2ncc(-c3ccc(C(N)=O)cc3)c2c1)c1ccc(C#N)cn1  AUC (female C57BL/6 mouse; oral, 10 mg/kg): 3.2 µM·h
CC(C)NC(=O)COc1cccc(-c2nc(Nc3ccc4[nH]ncc4c3)c3ccccc3n2)c1  AUC(0-inf) (male C57BL/6 mouse; oral, 100 mg/kg): 44800 ng·h/mL
Nc1ccn([C@@H]2O[C@H](CO)[C@@H](O)C2(F)F)c(=O)n1  AUC(0-t) (male BALB/c mouse; intravenous, 38 µmol/kg): 55.6 µM·h
CC(C)c1cc(C(=O)NCCN)c2cnn(C(C)C)c2n1  AUC(0-inf) (female BALB/c mouse; intraperitoneal, 50 mg/kg): 7600 ng·h/mL
Cc1ncsc1-c1ccc(CNC(=O)[C@@H]2C[C@@H](O)CN2C(=O)[C@@H](NC(=O)CCCCCCCCCCNC(=O)O[C@H]2C[C@@H](C)C=C3C=C[C@H](C)[C@H](CC[C@@H]4C[C@@H](O)CC(=O)O4)[C@H]32)C(C)(C)C)cc1  AUC(0-inf) (C57BL/6 mouse; oral, 60 mg/kg, single dose): 5.4 µM·h
CO[C@H]1/C=C/O[C@@]2(C)Oc3c(C)c(O)c4c(c3C2=O)C2=NC3(CCN(CC(C)C)CC3)NC2=C(NC(=O)/C(C)=C\C=C\[C@H](C)[C@H](O)[C@@H](C)[C@@H](O)[C@@H](C)[C@H](OC(C)=O)[C@@H]1C)C4=O  AUC (female CD-1 mouse; oral, 10 mg/kg): 11200 ng·h/mL

For quick reference, copied from above:
CC(C)n1ncc2c(C(=O)NCC3(C)CNC3)cc(C3CC3)nc21  AUC(0-inf) (female BALB/c mouse; intraperitoneal, 50 mg/kg): 11100 ng·h/mL
